Results collected from several papers.
Every numbered part comes from another study and shows a few of its results, in no order. Substitutions count along the parent as printed.

Set 1
Target: RNA binding protein fox-1 homolog 2, RRM domain, GST-SBP tag (RBFOX2, Homo sapiens, UniProt O43251-10, residues 100-194)
Method: RNA Bind-n-Seq
Molecule type: RNA
Sample: in vitro
Tested at: 365 nM
Setting: natural RNA segment, single round, ends assumed
Baseline: no-protein control
Reading: higher = stronger binding
Quantity: RBNS enrichment (R)
Construct (chain): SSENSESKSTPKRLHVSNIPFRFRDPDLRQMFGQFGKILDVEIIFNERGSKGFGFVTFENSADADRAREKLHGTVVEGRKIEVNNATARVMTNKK
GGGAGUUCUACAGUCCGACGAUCAUAUUGAAGUCCAGGGAGGGAGCGCCCCGGGCCGCGUCCGCCCCGUCCCACACUACGCCCCCGCCCCACUCCCGGGGCCUGCUAAUCUGAGGCCGAUCCGGGACCGGCCUUGGAAUUCUCGGGUGCCAA: 0.278
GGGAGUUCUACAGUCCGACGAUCCAUGUGUUCACACUGUGUGUAAACAUUCACUGAAGAUUUUUUCUUUGUGCAUUGCUGACUGUUCAAACAUAACAAGUAUUAUUAAAAUUAAAUAUUAACUGACCGAUCCUUGGAAUUCUCGGGUGCCAA: 0.778
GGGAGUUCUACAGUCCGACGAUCAAACCCUCUUCAGAGCAAGCGUGGAGGAUGAUGGAGAAUCGUGUGAUCAGUGUGCUAAAUCUCUCUGCCUGUUUGGACUUUGUAAUUAUUUUUUUAGCAGUAAUUAAAGAUGGAAUUCUCGGGUGCCAA: 3.54
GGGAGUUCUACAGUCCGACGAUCAGAAGAGUUUUUAGGUUGAGAAAUGUACUCUGCUUUGCUGAAAAGCCACAGCUUAGGCCCUCAGCCUCACUCCCUGGCUUGCUCAGUGCCUACAGCCCUGUUACCUGAUAUGGAAUUCUCGGGUGCCAA: 0.302
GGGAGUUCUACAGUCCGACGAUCAUAUAUGACGGUAUAUUUGCAAAAAGAGAAAGAAAAAUCUGGUAUUUGCAAUGAUCUGUGCCUUCUUUCUACCACCCUCUUGAUUGGAGCUUUUGUGAUGCAGCUACCAUUGGAAUUCUCGGGUGCCAA: 4.29
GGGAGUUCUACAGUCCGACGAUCUUAGACUGCUCUCCUUAGGGAGGAGCCAAGAGGGAUUUCCAUGCACACUGCCCAUGGUGGGUUUAAGUUACUGAAGUUCGAUUACUCAGGCCUGAUGAAUUUUUAAGACUUGGAAUUCUCGGGUGCCAA: 0.454
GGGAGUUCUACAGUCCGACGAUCCCUGGUUGCUAUUCUAAGAAUAAUUAGGAGGAGGAACCUAGCCAAUUGCAGCUCAUGUCCGUGGGUGUGUGCACGGGUGCAUAUGUUGGAAGGGGUGCCUGUCCCCUUGGUGGAAUUCUCGGGUGCCAA: 1.62
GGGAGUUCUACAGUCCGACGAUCUCUUCACCAUUCCUCCCAGCUCCACAUCUUAAGGAUGCUUACGGGAGACGAAGCUGUGUCAUCAAGAGCUCAGUGGGUGCGAGGAAAGUAUGAUCCAGCGCUCAGCCUUCUGGAAUUCUCGGGUGCCAA: 1.07

Set 2
Target: Prothrombin, mature alpha-thrombin (F2, Homo sapiens, UniProt P00734)
Method: aptamer microarray, sandwich
Molecule type: DNA with 2'F-ANA
Sample: in vitro
Tested at: 200 nM
Setting: whole 15-mer aptamer, many near background
Together with: Cy3 exosite-II aptamer, 400 nM
Reading: higher = stronger binding
Quantity: mean fluorescence intensity
Sequence: GGTTGGTGTGGTTGG
2'F-ANA at 1 2 4 6 10 12 13: 108 a.u.
2'F-ANA at 1 2 3 4 5 6 7 8 10 15: 49.4 a.u.
2'F-ANA at 1 3 4 6 8 14: 124 a.u.
2'F-ANA at 2 3 4 11 14: 337 a.u.
2'F-ANA at 4 5 6 7 12: 198 a.u.
2'F-ANA at 1 2 3 5 6 7 10 11 14 15: 238 a.u.
2'F-ANA at 2 4 5 6 7 10 11 12 13 14 15: 47 a.u.
2'F-ANA at 1 3 5 7 8 9 10 11 12 13 14: 49.7 a.u.
2'F-ANA at 1 2 3 4 5 6 7 11 14: 49.6 a.u.
2'F-ANA at 1 2 3 5 6 7 8 9 10 11 12 15: 53.1 a.u.
2'F-ANA at 2 3 6 7 11 12: 868 a.u.
2'F-ANA at 1 3 4 5 6 7 8 9 12: 161 a.u.
2'F-ANA at 1 2 3 7 9 10 12 13 15: 89.9 a.u.
2'F-ANA at 1 3 4 7 9 10 12 14: 51.8 a.u.
2'F-ANA at 1 3 5 7 12 13 14 15: 46.6 a.u.
2'F-ANA at 3 5 6 9 10 11 13: 66.6 a.u.
2'F-ANA at 1 4 5 7 9 10 11 12: 49.1 a.u.
2'F-ANA at 1 2 3 11 14 15: 74.9 a.u.
2'F-ANA at 1 2 4 7 10 13: 50 a.u.
2'F-ANA at 3 4 5 6 8 12 15: 223 a.u.

Set 3
Target: Ras GTPase-activating protein-binding protein 1, C-terminal RGG region (G3BP1, Homo sapiens, UniProt Q13283)
UniProt Q13283, sequence (whole entry, looked up): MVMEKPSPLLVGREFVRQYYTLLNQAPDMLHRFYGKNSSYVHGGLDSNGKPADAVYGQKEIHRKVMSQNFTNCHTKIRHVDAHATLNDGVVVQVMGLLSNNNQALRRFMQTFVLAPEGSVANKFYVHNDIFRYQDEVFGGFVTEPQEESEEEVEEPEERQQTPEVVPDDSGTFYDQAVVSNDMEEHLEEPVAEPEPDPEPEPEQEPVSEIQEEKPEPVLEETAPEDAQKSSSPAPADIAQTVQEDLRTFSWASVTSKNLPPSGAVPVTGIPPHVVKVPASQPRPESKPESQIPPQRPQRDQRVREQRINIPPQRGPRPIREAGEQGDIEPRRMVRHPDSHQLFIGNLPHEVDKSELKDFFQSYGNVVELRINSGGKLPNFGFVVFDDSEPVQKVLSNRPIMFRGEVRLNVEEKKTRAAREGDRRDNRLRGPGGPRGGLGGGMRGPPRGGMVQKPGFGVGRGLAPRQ
Method: RNA Bind-n-Seq
Molecule type: RNA
Sample: in vitro
Tested at: 1 µM
Setting: whole 134-nt RNA, ends assumed
Together with: 150 mM KCl
Baseline: input library
Reading: higher = stronger binding
Quantity: log2 enrichment
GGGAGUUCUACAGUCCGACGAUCACCAUGCAGGUAGGCAUCUUUGGGAAGUGGGGCAAGGGGGGGAUAGGGAGGGGGGUAACACUUUGGGAACAGGUGGUCCCAGGUCGUUUCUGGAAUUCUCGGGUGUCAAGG: -1.42
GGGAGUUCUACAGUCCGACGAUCCCUGUGCUACACAUCGUAUGUACCGAAUCGGGGUUUUUUGGUUUUUUGGGGUUUUUUGGGGAAAGUAUUAUGUUACGCCGUUCGGAUCUGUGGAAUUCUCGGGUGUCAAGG: -1.38
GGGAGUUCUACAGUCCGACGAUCACCAUGCAGGUGGGCAUCUUUGGGAAGUGGGGCAAGGGGGGGAUAGGGAGGGGGGUAACACUUUGGGAACAGGUCGUCCCAGGUCGUUUCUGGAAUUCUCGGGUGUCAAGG: 2.26
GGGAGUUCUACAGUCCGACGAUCUCCUGUGCUACACAUCGUAUGUACCGAAUCAAACCCCCCCAAAUUUUUAAACCCCCAAAAAAGUAUUAUGUUACGCCGUUCGGAUCUGCAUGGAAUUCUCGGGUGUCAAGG: -0.589
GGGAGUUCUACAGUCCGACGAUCAGUCCUGUGCUACACAUCGUAUGUACCGAAUCGGUUUUUUUGGUUUUUGGUUUUUGGAAAGUAUUAUGUUACGCCGUUCGGAUCUGCACUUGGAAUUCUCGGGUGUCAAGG: -1.68
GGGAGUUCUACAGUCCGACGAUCUCCUCAAGUCCUGUGCUACACAUCGUAUGUACCGAAUCGGAGGUUUGGAGGAAAGUAUUAUGUUACGCCGUUCGGAUCUGCACUUCCAGCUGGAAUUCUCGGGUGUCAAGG: -1.22
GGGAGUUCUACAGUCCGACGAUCUCAAUGCCGGCUAUGCCCUGGCCCCAGCCACCAGUGCCAACGACAGCGAGCAGCAGAGCCUGUCCAGCGAUGCAGACACCCUGUCCCUCAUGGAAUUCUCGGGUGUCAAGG: -0.209
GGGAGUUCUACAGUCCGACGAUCGAAAUUGAACCAGCAGCGAUGAAAGCAGCAGCUGCUGCCCCUGCCUCAGAGGAUGAGGACGAUGAGGAUGACGAAGAUGAUGAGGAUGACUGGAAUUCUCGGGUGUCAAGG: -1.71
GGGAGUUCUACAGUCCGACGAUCACCAUGCAGGUGGGCAUCUUUGGGAAGUGGGGCAAGGGGGGGAUAGGGAGGGGGGUAACACUUUGGGAACAGGUGGUCCCAGAUCGUUUCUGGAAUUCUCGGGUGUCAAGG: 1.62

Set 4
Target: CCNE2, cyclin fold, Cln2 fusion (human)
Method: yeast growth competition, sequencing
Sample: yeast
Setting: strong parent motif
Baseline: not given
Reading: higher = stronger binding
Quantity: normalised enrichment score
Starting sequence: E2F1 docking peptide (human); PPVKRRLDLETDH; partner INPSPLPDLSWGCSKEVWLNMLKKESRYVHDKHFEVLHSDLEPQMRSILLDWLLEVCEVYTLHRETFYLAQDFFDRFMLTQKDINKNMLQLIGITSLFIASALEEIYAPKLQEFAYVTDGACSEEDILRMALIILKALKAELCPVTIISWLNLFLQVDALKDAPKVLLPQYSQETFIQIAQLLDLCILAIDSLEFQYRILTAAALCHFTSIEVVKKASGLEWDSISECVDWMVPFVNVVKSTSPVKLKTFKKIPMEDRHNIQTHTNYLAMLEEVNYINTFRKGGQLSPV
PPVKRRLDLSTDH [E10S]: 1.18
PPVKRLLDLETDH [R6L]: 0.358
PPVKRRLALETDH [D8A]: 1.01
PPVKRRLDLETCH [D12C]: 1.55
PPVKRRLDLETDM [H13M]: 1.57
PPVKRRLDLERDH [T11R]: 0.739
PPVKRRFDLETDH [L7F]: -0.604
PPVKRRLDLEEDH [T11E]: 0.615
PPVKRRHDLETDH [L7H]: -0.0403
PPVKRELDLETDH [R6E]: 0.823
PPVKRMLDLETDH [R6M]: 0.673
PPVKNRLDLETDH [R5N]: -0.226
PPVKRRLDLNTDH [E10N]: 2.27
PPVKRRADLETDH [L7A]: -0.0851
PPVKFRLDLETDH [R5F]: 0.108
PPRKRRLDLETDH [V3R]: 1.33
PPVKRRLDLETWH [D12W]: 1.8
PPVKLRLDLETDH [R5L]: -0.326
PRVKRRLDLETDH [P2R]: 0.976
PPVKRRLDLEKDH [T11K]: 1.28
PPVKRRLDLEYDH [T11Y]: 2.17
PPVKYRLDLETDH [R5Y]: 0.266
PPVDRRLDLETDH [K4D]: 0.253
PPVKRRLDLETDV [H13V]: 0.773
PPVKRRLDLETDT [H13T]: 1.82

Single results of other studies
PhoQ, residues 284 288 289 292 302 303 QWGLFV
fold induction (PhoP, residues 12 14 15 18 19 TQAIL (Escherichia coli, UniProt P23836); Sort-seq, measured: YFP reporter; E. coli; PhoQ-PhoP variant library, together with: 10 µM Mg2+; baseline: high Mg2+ state, higher = stronger signaling): 3.58

Repeated from above (set 3):
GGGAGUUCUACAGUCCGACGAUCACCAUGCAGGUAGGCAUCUUUGGGAAGUGGGGCAAGGGGGGGAUAGGGAGGGGGGUAACACUUUGGGAACAGGUGGUCCCAGGUCGUUUCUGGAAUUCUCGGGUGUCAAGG: -1.42
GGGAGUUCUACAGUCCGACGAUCCCUGUGCUACACAUCGUAUGUACCGAAUCGGGGUUUUUUGGUUUUUUGGGGUUUUUUGGGGAAAGUAUUAUGUUACGCCGUUCGGAUCUGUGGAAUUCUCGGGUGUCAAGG: -1.38
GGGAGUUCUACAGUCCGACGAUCACCAUGCAGGUGGGCAUCUUUGGGAAGUGGGGCAAGGGGGGGAUAGGGAGGGGGGUAACACUUUGGGAACAGGUCGUCCCAGGUCGUUUCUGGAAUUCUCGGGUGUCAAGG: 2.26
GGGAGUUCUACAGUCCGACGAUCUCCUGUGCUACACAUCGUAUGUACCGAAUCAAACCCCCCCAAAUUUUUAAACCCCCAAAAAAGUAUUAUGUUACGCCGUUCGGAUCUGCAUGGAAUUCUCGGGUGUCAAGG: -0.589
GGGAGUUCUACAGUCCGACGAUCAGUCCUGUGCUACACAUCGUAUGUACCGAAUCGGUUUUUUUGGUUUUUGGUUUUUGGAAAGUAUUAUGUUACGCCGUUCGGAUCUGCACUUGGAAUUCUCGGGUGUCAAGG: -1.68
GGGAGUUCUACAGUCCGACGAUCUCCUCAAGUCCUGUGCUACACAUCGUAUGUACCGAAUCGGAGGUUUGGAGGAAAGUAUUAUGUUACGCCGUUCGGAUCUGCACUUCCAGCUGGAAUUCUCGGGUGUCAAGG: -1.22
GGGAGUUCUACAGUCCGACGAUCUCAAUGCCGGCUAUGCCCUGGCCCCAGCCACCAGUGCCAACGACAGCGAGCAGCAGAGCCUGUCCAGCGAUGCAGACACCCUGUCCCUCAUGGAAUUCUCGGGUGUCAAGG: -0.209
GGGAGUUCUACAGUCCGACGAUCGAAAUUGAACCAGCAGCGAUGAAAGCAGCAGCUGCUGCCCCUGCCUCAGAGGAUGAGGACGAUGAGGAUGACGAAGAUGAUGAGGAUGACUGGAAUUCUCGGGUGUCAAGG: -1.71
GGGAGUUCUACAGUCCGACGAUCACCAUGCAGGUGGGCAUCUUUGGGAAGUGGGGCAAGGGGGGGAUAGGGAGGGGGGUAACACUUUGGGAACAGGUGGUCCCAGAUCGUUUCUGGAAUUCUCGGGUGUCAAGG: 1.62
